Measurements from different studies.
Lines come from different studies, so protocols differ.

Compound	assay	system	setting	endpoint	value
CNC(=O)c1ccc(-c2cnc3ncc(Cc4ccc5ncccc5c4)n3n2)cc1F	ultrafiltration	human mild hepatic function, plasma	oral, 200 mg, 3 h post-dose, mean	fraction unbound	0.0318
CN[C@@H]1COc2c(S(=O)(=O)NC(=O)Nc3c4c(cc5c3CCC5)CCC4)cnn2C1		human, urine	oral, 150 mg, 0-48 h	fraction excreted in urine	0.162
CC(C)n1c(C2CCNCC2)nc2c([N+](=O)[O-])c(Br)c(Br)cc21		human, urine	oral, 75 mg, median, single dose	fraction excreted in urine	0.01
Cl.[2H]C([2H])([2H])CC(=O)c1cnc(NC(=O)C2CC2)cc1Nc1cccc(-c2ncn(C([2H])([2H])[2H])n2)c1OC		human, urine	oral, 20 mg once daily, fasted, multiple doses, mean incl outlier	fraction excreted unchanged	1.12%
CC(C)OC(=O)[C@@H](C)N[P@@](=O)(OC[C@H]1O[C@@H](n2ccc(=O)[nH]c2=O)[C@](C)(Cl)[C@@H]1O)Oc1ccccc1		human		fraction escaping hepatic clearance	0.649
C[C@@H](Oc1ccc(S(C)(=O)=O)cc1C(=O)N1C[C@@H]2C[C@]2(c2cc(C(F)(F)F)on2)C1)C(F)(F)F		elderly humans, urine	oral, 25 mg once daily, 0-24 h, single dose, geometric mean	fraction excreted in urine	2.08%
COc1ccc(F)cc1C(=O)NCc1ccc(-c2nn([C@@H](C)C(F)(F)F)c(N)c2C(N)=O)cc1		human	intravenous, 22 µg, biliary excretion assumed	fraction metabolised by other pathways	0.39
O=C(c1nc2n(n1)[C@H](c1ccccc1)C[C@@H]2F)C1CC1		human	150 mg single dose	fraction excreted in urine 0-72 h	0.1 to 0.2%
Cc1cc(-c2nccc3c2ccn3CC(=O)Nc2ccc(-c3cnccn3)cn2)ccn1		human, urine	oral, 20 mg single dose, geometric mean	fraction excreted in urine	1.21%
Cn1cc(-c2cn3nccc3c(-c3cnn([C@]4(CC#N)C[C@@H](C#N)C4)c3)n2)cn1		healthy humans, urine	oral, 200 mg twice daily, day 10, dosing interval	fraction excreted unchanged in urine	1.3%
CC(C)(Sc1ccncc1-c1ccc(C#N)c2ccccc12)C(=O)O		human, urine	oral, 10 mg, with: febuxostat 0 mg	fraction excreted in urine (0-24 h)	1.89%
C=CC(=O)Nc1cc(Nc2ncc(C(=O)OC(C)C)c(-c3cn(C)c4ccccc34)n2)c(OC)cc1N(C)CCN(C)C		healthy human, urine	oral, 40 mg single dose, arithmetic mean	fraction of dose excreted	1.31%
NCCONC(=O)[C@@H]1CC[C@@H]2CN1C(=O)N2OS(=O)(=O)O		human male, urine	intravenous infusion, 1 g single dose	fraction excreted in urine (0-8 h)	78.2%

Some of these lines once more:
Compound	assay	system	setting	endpoint	value
NCCONC(=O)[C@@H]1CC[C@@H]2CN1C(=O)N2OS(=O)(=O)O		human male, urine	intravenous infusion, 1 g single dose	fraction excreted in urine (0-8 h)	78.2%
CNC(=O)c1ccc(-c2cnc3ncc(Cc4ccc5ncccc5c4)n3n2)cc1F	ultrafiltration	human mild hepatic function, plasma	oral, 200 mg, 3 h post-dose, mean	fraction unbound	0.0318
